# Assay results of several laboratories.
# Each line is one published result; not all experiments were run side by side.
# IL1RL2: Interleukin-1 receptor-like 2 (IL1RL2, Homo sapiens, UniProt Q9HB29)
# UniProt Q9HB29, sequence (whole entry, looked up): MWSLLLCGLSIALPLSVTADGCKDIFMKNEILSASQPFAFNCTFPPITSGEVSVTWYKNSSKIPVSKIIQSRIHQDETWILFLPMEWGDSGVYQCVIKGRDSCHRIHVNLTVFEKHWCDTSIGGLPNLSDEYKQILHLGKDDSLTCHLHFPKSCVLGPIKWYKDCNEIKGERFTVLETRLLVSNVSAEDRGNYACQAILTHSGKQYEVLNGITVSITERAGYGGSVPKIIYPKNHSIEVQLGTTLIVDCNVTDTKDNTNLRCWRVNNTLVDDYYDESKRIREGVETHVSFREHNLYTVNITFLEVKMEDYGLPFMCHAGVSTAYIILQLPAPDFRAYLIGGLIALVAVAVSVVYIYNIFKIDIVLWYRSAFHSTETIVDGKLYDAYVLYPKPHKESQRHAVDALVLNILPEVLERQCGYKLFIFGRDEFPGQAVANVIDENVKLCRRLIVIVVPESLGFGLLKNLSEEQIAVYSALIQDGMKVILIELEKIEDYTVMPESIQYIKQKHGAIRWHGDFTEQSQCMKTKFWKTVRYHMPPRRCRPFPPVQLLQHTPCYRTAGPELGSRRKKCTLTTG
# Cereblon/Ikaros: Cereblon/Ikaros (Homo sapiens, UniProt Q13422+Q96SW2)
# MAOA: Amine oxidase [flavin-containing] A (MAOA, Homo sapiens, UniProt P21397)
# UniProt P21397, sequence (whole entry, looked up): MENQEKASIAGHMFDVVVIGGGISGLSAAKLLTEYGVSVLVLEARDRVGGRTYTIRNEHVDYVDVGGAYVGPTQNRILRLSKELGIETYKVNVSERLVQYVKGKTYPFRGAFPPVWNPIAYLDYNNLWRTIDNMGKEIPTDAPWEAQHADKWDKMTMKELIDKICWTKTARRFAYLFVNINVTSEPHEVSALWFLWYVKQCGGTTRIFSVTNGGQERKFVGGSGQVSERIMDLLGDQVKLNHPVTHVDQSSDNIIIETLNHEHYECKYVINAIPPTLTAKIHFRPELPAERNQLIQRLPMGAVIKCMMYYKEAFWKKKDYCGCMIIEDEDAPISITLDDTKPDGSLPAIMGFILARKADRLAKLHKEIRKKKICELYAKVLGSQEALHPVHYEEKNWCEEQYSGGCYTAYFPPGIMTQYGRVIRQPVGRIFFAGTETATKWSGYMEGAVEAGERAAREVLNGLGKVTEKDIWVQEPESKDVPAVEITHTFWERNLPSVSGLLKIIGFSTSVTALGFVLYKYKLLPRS
# UniProt Q6PJP8, sequence (whole entry, looked up): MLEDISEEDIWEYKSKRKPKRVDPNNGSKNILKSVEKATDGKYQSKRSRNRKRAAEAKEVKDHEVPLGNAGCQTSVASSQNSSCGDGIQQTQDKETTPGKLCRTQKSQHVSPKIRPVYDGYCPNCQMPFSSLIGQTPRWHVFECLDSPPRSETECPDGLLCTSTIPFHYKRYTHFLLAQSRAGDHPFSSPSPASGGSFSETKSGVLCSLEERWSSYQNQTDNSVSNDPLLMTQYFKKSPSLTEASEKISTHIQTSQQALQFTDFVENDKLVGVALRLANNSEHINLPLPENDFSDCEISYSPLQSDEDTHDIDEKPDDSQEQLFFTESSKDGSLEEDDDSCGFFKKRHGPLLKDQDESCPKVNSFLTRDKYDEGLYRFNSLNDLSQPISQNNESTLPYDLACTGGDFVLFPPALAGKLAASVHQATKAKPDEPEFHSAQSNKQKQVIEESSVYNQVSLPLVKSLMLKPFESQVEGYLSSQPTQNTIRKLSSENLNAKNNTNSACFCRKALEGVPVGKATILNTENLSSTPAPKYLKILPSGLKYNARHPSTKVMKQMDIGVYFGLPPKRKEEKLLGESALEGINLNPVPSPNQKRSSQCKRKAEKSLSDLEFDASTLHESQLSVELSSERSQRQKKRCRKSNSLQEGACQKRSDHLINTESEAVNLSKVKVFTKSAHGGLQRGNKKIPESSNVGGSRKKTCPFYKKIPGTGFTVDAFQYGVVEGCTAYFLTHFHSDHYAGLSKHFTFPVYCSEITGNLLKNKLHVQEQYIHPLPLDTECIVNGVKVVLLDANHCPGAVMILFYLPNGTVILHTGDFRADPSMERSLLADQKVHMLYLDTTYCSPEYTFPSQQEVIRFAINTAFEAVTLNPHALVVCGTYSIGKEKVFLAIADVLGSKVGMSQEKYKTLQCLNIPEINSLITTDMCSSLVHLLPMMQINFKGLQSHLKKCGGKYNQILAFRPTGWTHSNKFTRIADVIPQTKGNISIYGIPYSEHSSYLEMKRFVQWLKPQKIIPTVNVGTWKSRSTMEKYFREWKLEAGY
# UniProt O43781, sequence (whole entry, looked up): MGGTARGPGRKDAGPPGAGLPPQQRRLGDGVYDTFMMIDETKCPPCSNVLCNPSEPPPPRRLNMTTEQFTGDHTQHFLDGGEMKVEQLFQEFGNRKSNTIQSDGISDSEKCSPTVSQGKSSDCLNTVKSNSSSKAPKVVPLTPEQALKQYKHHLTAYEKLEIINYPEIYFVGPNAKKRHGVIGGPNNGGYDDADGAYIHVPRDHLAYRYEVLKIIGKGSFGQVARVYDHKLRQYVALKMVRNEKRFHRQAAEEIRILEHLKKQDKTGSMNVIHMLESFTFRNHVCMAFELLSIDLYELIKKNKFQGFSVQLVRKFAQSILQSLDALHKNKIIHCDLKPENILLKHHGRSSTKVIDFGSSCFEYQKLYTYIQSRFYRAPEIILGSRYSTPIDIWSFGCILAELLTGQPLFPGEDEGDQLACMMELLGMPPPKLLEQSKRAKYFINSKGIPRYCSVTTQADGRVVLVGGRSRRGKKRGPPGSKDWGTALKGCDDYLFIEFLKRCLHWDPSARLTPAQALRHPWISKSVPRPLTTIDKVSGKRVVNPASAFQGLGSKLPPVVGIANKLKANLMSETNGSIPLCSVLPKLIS
# UniProt Q6VAB6, sequence (whole entry, looked up): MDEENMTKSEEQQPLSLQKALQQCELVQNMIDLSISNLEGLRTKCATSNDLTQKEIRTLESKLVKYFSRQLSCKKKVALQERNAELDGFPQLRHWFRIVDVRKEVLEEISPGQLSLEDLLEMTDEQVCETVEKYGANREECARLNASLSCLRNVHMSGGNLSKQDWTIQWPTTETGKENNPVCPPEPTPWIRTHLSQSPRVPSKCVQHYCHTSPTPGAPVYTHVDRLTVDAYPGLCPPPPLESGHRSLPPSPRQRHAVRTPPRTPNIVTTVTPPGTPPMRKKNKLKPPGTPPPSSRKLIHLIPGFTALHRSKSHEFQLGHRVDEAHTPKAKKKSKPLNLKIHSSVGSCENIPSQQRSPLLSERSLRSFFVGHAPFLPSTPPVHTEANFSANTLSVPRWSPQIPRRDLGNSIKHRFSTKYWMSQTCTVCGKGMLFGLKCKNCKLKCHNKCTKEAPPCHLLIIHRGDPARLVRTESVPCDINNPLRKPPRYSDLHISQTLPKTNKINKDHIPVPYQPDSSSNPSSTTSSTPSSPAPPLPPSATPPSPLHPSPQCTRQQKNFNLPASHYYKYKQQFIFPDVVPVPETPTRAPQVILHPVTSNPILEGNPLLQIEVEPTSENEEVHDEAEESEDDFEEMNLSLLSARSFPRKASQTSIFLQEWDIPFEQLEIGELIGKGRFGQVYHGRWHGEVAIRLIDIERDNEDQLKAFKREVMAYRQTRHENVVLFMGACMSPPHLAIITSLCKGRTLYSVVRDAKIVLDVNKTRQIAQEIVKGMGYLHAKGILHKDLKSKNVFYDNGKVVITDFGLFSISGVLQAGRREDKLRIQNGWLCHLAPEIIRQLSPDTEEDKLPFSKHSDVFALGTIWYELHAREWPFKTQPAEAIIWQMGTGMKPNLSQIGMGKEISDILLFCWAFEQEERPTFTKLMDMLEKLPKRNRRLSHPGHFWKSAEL
# UniProt P20231, sequence (whole entry, looked up): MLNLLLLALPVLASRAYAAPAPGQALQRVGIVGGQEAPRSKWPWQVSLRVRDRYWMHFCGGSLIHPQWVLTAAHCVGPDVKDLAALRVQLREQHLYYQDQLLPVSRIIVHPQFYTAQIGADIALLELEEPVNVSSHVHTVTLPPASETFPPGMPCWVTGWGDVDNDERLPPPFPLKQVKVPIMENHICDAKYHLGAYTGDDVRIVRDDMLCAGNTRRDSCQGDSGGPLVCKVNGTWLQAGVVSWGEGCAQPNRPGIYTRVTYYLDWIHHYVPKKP
# UniProt Q05513, sequence (whole entry, looked up): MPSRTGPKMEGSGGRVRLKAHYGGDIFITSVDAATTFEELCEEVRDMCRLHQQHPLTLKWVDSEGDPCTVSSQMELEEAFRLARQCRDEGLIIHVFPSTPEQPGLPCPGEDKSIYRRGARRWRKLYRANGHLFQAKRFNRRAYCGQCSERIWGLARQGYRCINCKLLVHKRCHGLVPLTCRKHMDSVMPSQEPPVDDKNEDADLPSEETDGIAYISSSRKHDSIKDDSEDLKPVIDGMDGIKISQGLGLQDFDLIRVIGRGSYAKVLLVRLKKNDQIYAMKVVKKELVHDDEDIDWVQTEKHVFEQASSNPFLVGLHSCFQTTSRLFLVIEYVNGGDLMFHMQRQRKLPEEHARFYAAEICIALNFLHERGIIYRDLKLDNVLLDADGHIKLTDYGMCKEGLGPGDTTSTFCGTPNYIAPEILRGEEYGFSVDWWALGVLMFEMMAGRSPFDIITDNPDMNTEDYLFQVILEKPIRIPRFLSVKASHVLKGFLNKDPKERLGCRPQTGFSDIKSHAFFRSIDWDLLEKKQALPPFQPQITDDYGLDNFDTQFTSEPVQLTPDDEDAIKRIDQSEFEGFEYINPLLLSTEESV
# UniProt Q16539, sequence (whole entry, looked up): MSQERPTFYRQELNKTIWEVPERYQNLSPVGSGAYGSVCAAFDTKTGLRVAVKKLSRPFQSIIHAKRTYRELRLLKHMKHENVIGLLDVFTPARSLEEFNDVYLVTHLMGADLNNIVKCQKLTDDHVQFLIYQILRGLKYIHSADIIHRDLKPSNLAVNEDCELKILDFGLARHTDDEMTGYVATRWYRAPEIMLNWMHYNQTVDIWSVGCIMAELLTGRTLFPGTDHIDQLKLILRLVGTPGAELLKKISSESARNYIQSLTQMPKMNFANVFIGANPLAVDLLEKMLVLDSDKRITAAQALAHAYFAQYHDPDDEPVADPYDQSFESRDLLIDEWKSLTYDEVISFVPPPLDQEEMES
SMILES,target,test,system,setting,scale,remaining activity
COc1ccccc1-c1ccncc1C(=O)Nc1nnc(OCc2ccc(Cl)cc2)s1,"DNA polymerase theta, helicase domain (POLQ, Homo sapiens, UniProt O75417)","ATPase activity, ADP-Glo",,1.9 µM,relative to: 0 µM cpd,18%
CC(C)[C@@H]1NC(=O)[C@H](Cc2ccccc2)NC(=O)CSC[C@@H](C(N)=O)NC(=O)[C@H](CCC(=O)O)NC(=O)[C@H](CO)NC(=O)[C@H](Cc2c[nH]c3cccc(Cl)c23)NC(=O)[C@H](C2CCCCC2)NC(=O)[C@H](C(C)C)NC(=O)[C@H](Cc2ccc(O)cc2)NC(=O)[C@H](CC(=O)O)NC(=O)[C@H](Cc2c[nH]c3ccccc23)NC(=O)[C@H](Cc2ccc(N)nc2)NC(=O)[C@H](Cc2c[nH]c3ccc(Cl)cc23)NC(=O)[C@H](CCC(=O)O)NC1=O,IL1RL2,"reporter gene (SEAP), inhibitor, HEK-Blue IL-36R reporter",HEK-Blue IL-36R cells,"0.005 µM, 6 h, together with: IL-36γ 30 ng/mL",,105%
O=C1CCC(N2C(=O)c3cccc4c(Cc5cnn(C6CCN(C(=O)C7(O)CCC7)CC6)c5)ccc2c34)C(=O)N1 (stereo not shown),Cereblon/Ikaros,"protein level, degrader, western blot",NCI-H929,"1 nM, 4 h",,19.2%
N#Cc1cnc2sc(C(=O)O)cc2c1N1CCc2[nH]nc(C(=O)N[C@@H](CC(=O)NCCOCCN3CCOCC3)c3cccc(Br)c3)c2C1,IL1RL2,"SEAP reporter gene, antagonist",HEK-Blue IL-36R cells,"0.015 µM, 6 h, together with: IL-36 0.003 ng/mL",relative to: untreated,90.2%
O=C1CCC(N2Cc3c(OCc4ccc(CN5CCNCC5)cc4)cccc3C2=O)C(=O)N1 (stereo not shown),Cereblon/Ikaros,"protein level, degrader, western blot",NCI-H929,"10 nM, 4 h",,73.2%
Cc1ccc(C)c(-c2ccc3nc(NC(=O)C4CCCCC4)nn3c2)c1,"PRKCZ (Homo sapiens, UniProt Q05513)","enzyme activity, Dundee kinase panel",,10 µM,,76%
CC(C)(O)C(=O)N1CCC(n2cc(Cc3ccc4c5c(cccc35)C(=O)N4C3CCC(=O)NC3=O)cn2)CC1 (stereo not shown),Cereblon/Ikaros,"protein level, degrader, western blot",NCI-H929,"1 nM, 4 h",,31.6%
Nc1ncc(-c2cc(-c3cnn(CC(F)(F)F)c3)ncc2F)nc1C(=O)NC1CNCC(F)C1 (stereo not shown),"KSR2 (Homo sapiens, UniProt Q6VAB6)",enzyme activity,,1 µM,relative to: DMSO control,91.8%
Cc1cccc(-c2ccc3nc(NC(=O)C4CCCCC4)nn3c2)c1,"DYRK3 (Homo sapiens, UniProt O43781)","enzyme activity, Dundee kinase panel",,10 µM,,19%
O=C1CCC(N2C(=O)c3cccc4c(Cc5cnn(C6CCN(C(=O)CS)CC6)c5)ccc2c34)C(=O)N1 (stereo not shown),Cereblon/Ikaros,"protein level, degrader, western blot",NCI-H929,"10 nM, 4 h",,81.3%
COC(=O)[C@@]1(C)C=C(C(=O)Nc2cccc(C(=O)Nc3ccc(Nc4nccc(-c5cccnc5)n4)c(C)c3)c2)C(=O)CC1,"MAPK14 (Homo sapiens, UniProt Q16539)","kinase activity, inhibitor",,"44.44 µM, unit not given",relative to: no inhibitor,0.389
O=C1CCC(N2Cc3c(OCc4cn(C5CCNCC5)nn4)cccc3C2=O)C(=O)N1 (stereo not shown),Cereblon/Ikaros,"protein level, degrader, western blot",NCI-H929,"10 nM, 4 h",,69.8%
CC(C)c1ccc(/C=C/C(=O)c2ccc(Br)cc2)cc1,MAOA,"enzyme activity, inhibitor",,10 µM,,32.4%
CNC(=O)C[C@H](Cc1ccc(C#N)cc1)NC(=O)c1cc(-c2ccc(CN[C@H](C)c3ccc(C)cc3)o2)ccc1Cl,"ATR (Homo sapiens, UniProt Q13535)","enzyme activity, KinaseProfiler panel",,1 µM,,98%
C[C@](C(=O)NC1CCOCC1)(c1cncnc1)N(C(=O)[C@H](F)Cl)c1ccc(OC(F)(F)Cl)cc1,"Tryptase beta-2 (TPSB2, Homo sapiens, UniProt P20231)","enzyme activity, inhibitor",,10 µM,,101%
O=C1CCC(N2C(=O)c3cccc4c(Cn5cc(C6CCNCC6)nn5)ccc2c34)C(=O)N1 (stereo not shown),Cereblon/Ikaros,"protein level, degrader, western blot",NCI-H929,"10 nM, 4 h",,39.3%
O=C(O[C@@H]1Cc2c(O)cc(O)cc2O[C@@H]1c1cc(O)c(O)c(O)c1)c1cc(O)c(O)c(O)c1,"DCLRE1A (Homo sapiens, UniProt Q6PJP8)","exonuclease activity, inhibitor, fluorescence HTS",,"10 µM, 80 min, together with: 8 nM 5P-FQ substrate",,20.3%
CC(=O)N1c2ccc(-c3ccc(CNC(=O)c4cn5cc(-c6cnc(N)nc6)nc(N6CCOCC6)c5n4)cc3)cc2CC[C@@H]1C,"MTOR (Homo sapiens, UniProt P42345)","enzyme activity, inhibitor, radiometric",,1 µM,,108%
CC(C)c1ccc(/C=C/C(=O)c2ccc(F)cc2)cc1,MAOA,"enzyme activity, inhibitor",,10 µM,,51.4%
